Assay results gathered from unrelated publications.
A part holds a random share of what one study measured.
Chain of UniProt Q9UJQ4 (whole entry, looked up): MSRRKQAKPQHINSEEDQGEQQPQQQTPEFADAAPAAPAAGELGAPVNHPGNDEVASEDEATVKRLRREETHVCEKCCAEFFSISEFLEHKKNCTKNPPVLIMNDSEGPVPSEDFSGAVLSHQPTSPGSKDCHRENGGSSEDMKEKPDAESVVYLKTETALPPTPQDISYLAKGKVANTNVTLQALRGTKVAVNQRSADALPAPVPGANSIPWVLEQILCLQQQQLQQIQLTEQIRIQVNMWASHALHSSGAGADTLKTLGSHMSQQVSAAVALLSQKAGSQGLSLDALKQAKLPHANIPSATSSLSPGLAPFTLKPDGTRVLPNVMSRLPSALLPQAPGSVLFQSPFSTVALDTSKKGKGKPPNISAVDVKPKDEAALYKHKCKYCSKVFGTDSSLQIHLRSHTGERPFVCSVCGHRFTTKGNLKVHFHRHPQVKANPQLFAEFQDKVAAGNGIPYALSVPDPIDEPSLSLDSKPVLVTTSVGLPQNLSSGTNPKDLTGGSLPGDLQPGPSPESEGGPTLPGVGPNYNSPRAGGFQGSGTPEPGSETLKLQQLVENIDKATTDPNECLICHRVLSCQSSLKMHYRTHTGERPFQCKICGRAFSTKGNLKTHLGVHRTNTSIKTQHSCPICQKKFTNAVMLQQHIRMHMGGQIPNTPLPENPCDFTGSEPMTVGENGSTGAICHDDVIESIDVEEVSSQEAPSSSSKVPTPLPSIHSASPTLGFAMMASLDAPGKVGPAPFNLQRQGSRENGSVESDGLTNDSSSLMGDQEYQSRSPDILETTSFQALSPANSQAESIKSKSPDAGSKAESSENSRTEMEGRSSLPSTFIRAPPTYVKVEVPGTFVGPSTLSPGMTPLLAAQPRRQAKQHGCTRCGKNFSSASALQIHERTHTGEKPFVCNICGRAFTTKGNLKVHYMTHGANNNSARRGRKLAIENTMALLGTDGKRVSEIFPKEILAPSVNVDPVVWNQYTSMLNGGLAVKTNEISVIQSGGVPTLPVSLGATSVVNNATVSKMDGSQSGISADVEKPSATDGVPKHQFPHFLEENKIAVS
Chain of UniProt Q92985 (whole entry, unmodified, looked up): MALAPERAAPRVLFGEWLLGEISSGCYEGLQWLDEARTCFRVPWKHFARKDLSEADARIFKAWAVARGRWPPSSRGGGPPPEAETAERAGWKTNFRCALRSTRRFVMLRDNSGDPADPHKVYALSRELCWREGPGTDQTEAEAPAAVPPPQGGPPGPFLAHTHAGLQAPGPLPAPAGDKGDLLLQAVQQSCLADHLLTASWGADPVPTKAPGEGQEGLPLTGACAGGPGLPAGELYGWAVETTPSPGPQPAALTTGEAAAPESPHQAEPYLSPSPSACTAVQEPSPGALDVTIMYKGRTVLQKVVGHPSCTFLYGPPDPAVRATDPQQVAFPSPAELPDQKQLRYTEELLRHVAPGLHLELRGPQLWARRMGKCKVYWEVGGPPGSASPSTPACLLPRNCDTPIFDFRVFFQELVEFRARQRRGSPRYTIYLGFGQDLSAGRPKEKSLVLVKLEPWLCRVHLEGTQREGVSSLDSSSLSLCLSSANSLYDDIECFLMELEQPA

Block 1 — technique: protein binding microarray; form: double-stranded DNA, one strand shown; medium: in vitro; concentration: not given; relative to: not given; reading: higher = stronger binding; endpoint: E-score
Target: Histone acetyltransferase KAT6A, winged helix 1, GST fusion (KAT6A, Homo sapiens, UniProt Q92794, residues 1-85)
Notes: 8-mer, flanks averaged, mean of 2 arrays, mostly near background
Target sequence (chain): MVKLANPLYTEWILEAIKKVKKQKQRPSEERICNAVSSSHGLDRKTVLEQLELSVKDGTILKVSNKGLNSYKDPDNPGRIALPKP
Oligonucleotide = CCTCAGAC; value = 0.0115
Oligonucleotide = TCCTCAGA; value = -0.208
Oligonucleotide = GCTTTAAA; value = -0.144

Mixed results
F2 mature alpha-thrombin: Prothrombin, mature alpha-thrombin (F2, Homo sapiens, UniProt P00734)
Substance = GCCTAGCACTTAAGTTTCCTTCTCCTTTAGTGCTAGGTCTTGATTCGCTTGACGCTGCTG; target = Interferon regulatory factor 7, full length, phosphomimetic (IRF7, Homo sapiens, UniProt Q92985, residues 1-503, S471D/S472D/S475D/S476D/S477D/S483D/S484D/S487D); test = protein-binding microarray; test system = double-stranded DNA, one strand shown, in vitro; conditions = 2200 nM top, 60-bp whole probe, together with: salmon DNA 0.4 mg/ml; how to read = relative to: random background probes, higher = stronger binding; endpoint = fitted relative affinity; value = 2.8 z-score
Substance = PhoQ, residues 284 288 289 292 302 303 SIHLQL; target = PhoP, residues 12 14 15 18 19 NYFTV (Escherichia coli, UniProt P23836); test = Sort-seq, measured: YFP reporter; test system = E. coli; conditions = PhoQ-PhoP variant library, together with: 10 µM Mg2+; how to read = relative to: high Mg2+ state, higher = stronger signaling; endpoint = fold induction; value = 19
Substance = GGTTGGTGTGGTTGG (2'F-ANA at 1 4 6 9 13 14 15); target = F2 mature alpha-thrombin; test = aptamer microarray, sandwich; test system = DNA with 2'F-ANA, in vitro; conditions = 200 nM, whole 15-mer aptamer, many near background, together with: Cy3 exosite-II aptamer, 400 nM; how to read = higher = stronger binding; endpoint = mean fluorescence intensity; value = 46.8 a.u.
Substance = CTAACTCC; target = Sal-like protein 4, full length isoform A (SALL4, Homo sapiens, UniProt Q9UJQ4, residues 1-1053); test = universal PBM; test system = double-stranded DNA, one strand shown, in vitro; conditions = 600 nM, 8-mer, flanks averaged, mean of replicates; how to read = higher = stronger binding; endpoint = E-score; value = -0.103
Substance = GGTTGGTGTGGTTGG (2'F-ANA at 7 8 15); target = F2 mature alpha-thrombin; test = aptamer microarray, sandwich; test system = DNA with 2'F-ANA, in vitro; conditions = 200 nM, whole 15-mer aptamer, many near background, together with: Cy3 exosite-II aptamer, 400 nM; how to read = higher = stronger binding; endpoint = mean fluorescence intensity; value = 731 a.u.
Substance = GCCTAGCACGACGGTTTCGACTTTAGGGACGTGCTAGTCTTGATTCGCTTGACGCTGCTG; target = Interferon regulatory factor 5, full length, phosphomimetic (IRF5, Homo sapiens, UniProt Q13568-2, residues 1-514, K96S/S451D/S453D/S456D/S462D); test = protein-binding microarray; test system = double-stranded DNA, one strand shown, in vitro; conditions = 250 nM, 60-bp whole probe, together with: salmon DNA 0.4 mg/ml; how to read = relative to: random background probes, higher = stronger binding; endpoint = log fluorescence; value = 5.5 z-score

Excerpt of the above (mixed results):
Substance = GGTTGGTGTGGTTGG (2'F-ANA at 7 8 15); target = F2 mature alpha-thrombin; test = aptamer microarray, sandwich; test system = DNA with 2'F-ANA, in vitro; conditions = 200 nM, whole 15-mer aptamer, many near background, together with: Cy3 exosite-II aptamer, 400 nM; how to read = higher = stronger binding; endpoint = mean fluorescence intensity; value = 731 a.u.
Substance = GGTTGGTGTGGTTGG (2'F-ANA at 1 4 6 9 13 14 15); target = F2 mature alpha-thrombin; test = aptamer microarray, sandwich; test system = DNA with 2'F-ANA, in vitro; conditions = 200 nM, whole 15-mer aptamer, many near background, together with: Cy3 exosite-II aptamer, 400 nM; how to read = higher = stronger binding; endpoint = mean fluorescence intensity; value = 46.8 a.u.
